Experimental data gathered from unrelated publications.
Each line is one published result; not all experiments were run side by side. Numbers after ± are the reported error.
Action: inhibitor
rep main protease: Replicase polyprotein 1ab, main protease (rep, Severe acute respiratory syndrome coronavirus 2, UniProt P0DTD1)

CC(=O)Oc1ccc(/C=C/C(=O)O[C@@H]2Cc3c(O)cc(O)cc3O[C@@H]2c2ccc(O)c(O)c2)cc1OC(C)=O  IC50 (rep main protease; enzyme activity, FRET): 23.1 µM
C[C@@H]1O[C@@H](Oc2cc3c(=O)oc4c(O)c(O)cc5c(=O)oc(c2O)c3c45)[C@H](O)[C@H](O)[C@H]1OC(=O)c1cc(O)c(O)c(O)c1  IC50 (rep main protease; enzyme activity): 2 µM
COc1ccc([C@H]2OC[C@H]3[C@@H]2CO[C@@H]3c2ccc(O[C@@H]3O[C@H](CO)[C@@H](O)[C@H](O)[C@H]3O)c(OC)c2)cc1OC  IC50 (rep main protease; enzyme activity, FRET): 11.5 ± 0.58 µM
Nc1ncnc2c1ncn2[C@@H]1O[C@H](CSCc2cc(C(=O)O)cc(-c3cccc(O)c3)c2)[C@@H](O)[C@H]1O  IC50 (Replicase polyprotein 1ab, nsp16 with nsp10 (rep, Severe acute respiratory syndrome coronavirus 2, UniProt P0DTD1); methyltransferase activity; 30 min, 30 °C, together with: SAM 10 µM): 0.0014 ± 0.0001 µM
CC(=O)N(c1ccc(C(C)(C)C)cc1)C(C(=O)NCCc1cccc(F)c1)c1cccnc1 (stereo not shown)  IC50 (rep main protease; enzyme activity): > 20 µM
CC1CC(c2ccc(C(=O)O)cc2C#N)=NN1c1ccc(C#N)c(Cl)c1 (stereo not shown)  IC50 (Replicase polyprotein 1ab, methyltransferase (rep, Severe acute respiratory syndrome coronavirus 2, UniProt P0DTD1); enzyme activity): 10 µM
Cc1ccc(C)c(COn2nnc3ccc(S(=O)(=O)N(C)C)cc32)c1  IC50 (rep main protease; enzyme activity): > 100 µM
CN(C)CCCCNC(=O)C[C@H](Cc1ccc(F)cc1)NC(=O)[C@@H](Cc1ccc(Cl)cc1)NC(=O)[C@H](N)Cc1ccccc1C#N  IC50 (rep main protease; enzyme activity, fluorescence): 0.04 µM
CCC(C(=O)Nc1ccc(F)cc1)n1c(SCc2ccc(F)cc2)nc2ncccc21 (stereo not shown)  IC50 (Replicase polyprotein 1ab, papain-like protease (rep, Severe acute respiratory syndrome coronavirus 2, UniProt P0DTD1); enzyme activity): > 20 µM
Cc1cncc(C(=O)N2CCC(=C3c4ccccc4CS(=O)(=O)c4ccccc43)CC2)c1  IC50 (rep main protease; enzyme activity): 0.012 µM
O=c1c2ccccc2sn1-c1ccccc1  IC50 (rep main protease; enzyme activity; 10 min preincubation, 30 nM enzyme, together with: 20 µM substrate): 0.2 ± 0.03 µM
O=C1CC(c2ccccc2)Oc2ccccc21 (stereo not shown)  IC50 (Replicase polyprotein 1ab, nsp13 helicase (rep, Severe acute respiratory syndrome coronavirus 2, UniProt P0DTD1); helicase ATPase activity; together with: poly(A) ssRNA): > 30 µM
CNc1nc(NC(CCO)c2ccccc2Cl)nc(N2CCN(C(=O)CCl)C(C)C2)n1 (stereo not shown)  IC50 (rep main protease; enzyme activity): 1.67 µM
O=C(ONC(=O)c1ccccc1)Oc1ccccc1  IC50 (rep main protease; enzyme activity, FRET): 3.6 µM
C#CCCCNC(=O)CC(Cc1ccc(F)cc1)NC(=O)C(Cc1ccc(Cl)cc1Cl)NC(=O)C(N)Cc1ccccc1C#N (stereo not shown)  IC50 (rep main protease; enzyme activity, fluorescence): 0.1 µM
CCOC(=O)CNC(=O)c1ccccc1[Se][Se]c1ccccc1C(=O)NCC(=O)OCC  IC50 (rep main protease; enzyme activity): 0.56 µM

A few entries again:
C#CCCCNC(=O)CC(Cc1ccc(F)cc1)NC(=O)C(Cc1ccc(Cl)cc1Cl)NC(=O)C(N)Cc1ccccc1C#N (stereo not shown)  IC50 (rep main protease; enzyme activity, fluorescence): 0.1 µM
C[C@@H]1O[C@@H](Oc2cc3c(=O)oc4c(O)c(O)cc5c(=O)oc(c2O)c3c45)[C@H](O)[C@H](O)[C@H]1OC(=O)c1cc(O)c(O)c(O)c1  IC50 (rep main protease; enzyme activity): 2 µM
